Assay results collected from several papers.
Every numbered part comes from another study and shows a few of its results, in no order.

Block 1
Target: RNA binding protein fox-1 homolog 2, RRM domain, GST-SBP tag (RBFOX2, Homo sapiens, UniProt O43251-10, residues 100-194)
Technique: RNA Bind-n-Seq
Form: RNA
Matrix: in vitro
Concentration: 365 nM
Notes: natural RNA segment, single round, ends assumed
Baseline: no-protein control
Reading: higher = stronger binding
Residues (chain): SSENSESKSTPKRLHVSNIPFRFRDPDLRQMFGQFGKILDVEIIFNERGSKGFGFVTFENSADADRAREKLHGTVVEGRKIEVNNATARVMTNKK
Sequence	RBNS enrichment (R)
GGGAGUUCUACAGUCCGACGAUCAUCUUCCUCCCCUUUCUCCCUUUCACUCCUUCCCCUGCGGACACAUUCUAGUUCCUGCAGGGCUUAUUUAAAAAGAAGAUGGUCAAGUUUGUAAAAUAUUUGUUCGUGCUUGGAAUUCUCGGGUGCCAA	1.76
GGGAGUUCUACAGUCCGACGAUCUUGCUCCCUUGAUCCCCCCCUUUUUUUGUCCCUUCGAAGAGUAAAUGCUUUGUAUUUCUUUCUUUAAAAAAUUUACUUUAAAGAAGAAGCCACUUGAACCUUCAAUAAAGUGGAAUUCUCGGGUGCCAA	0.602
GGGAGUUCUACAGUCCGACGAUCCCUUGAUGUAGGUGUUUCAAGUGAACUUUAGACCAACAGUUGCCCAGUGACCUGCUAAAAAGUCAACUAGCUCAGAGUUUUGCUGGCCUUUAUGUGAGAAAUCCAAGAAAUGGAAUUCUCGGGUGCCAA	0.548
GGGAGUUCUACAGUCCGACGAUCUGUCAUGUCAUUAACAGAACUGAAAUAUUCUAUUGUAAGACGUGCAUUUGCGGUUAGAAUGGUCUUGUUGCCUAAACUGUCUAAAAUUCUAAUAAAAUAACUUUCUAAGAUGGAAUUCUCGGGUGCCAA	0.582
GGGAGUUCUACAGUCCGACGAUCGCCAGAAUCCACUGGCCUCUGUCUCAUUCUUGGGUUUUCCUGCUGUCUUCGUUUACGUCUCUGUCCACAUGUCAGUGUAUUAAAACCCCAAUGGGUUCCGUUUCUCCUUUUGGAAUUCUCGGGUGCCAA	0.264
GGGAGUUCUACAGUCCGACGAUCUGUUAGGAGAAAAUAUUUUCCAUCUUUUAACCUCUUAGUUGUCUAAGAGUUAAAUAUUACUGAAUUUCAGACGUUCAAAUUGAUCAUCAGAAAUCCUUUAAAACAAUUACUGGAAUUCUCGGGUGCCAA	0.496
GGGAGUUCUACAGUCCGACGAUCGCAAGGGUCCCAGCUGCCCCGAGGCAGUCUGUGGCCCUGGUUGAAGGAAGCACAAACUAGAUGUCUGCAUCUCAUCUGGGCGUGCAGACAGGUGAGGAUCAGCAGGGUCCUGGAAUUCUCGGGUGCCAA	0.334
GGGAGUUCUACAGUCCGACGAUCUUCCCUGGUUGCCUCCUGGGCCCCAUGUGGCCAGCAGAUGCUGGAGUCUGCCUGCUCAGACUAUCACCUGUACCUCCCUGAAUACCAGCGUUUAACCUUCAAGACAUCCCUGGAAUUCUCGGGUGCCAA	0.597
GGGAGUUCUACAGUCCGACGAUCCUGGGGGACUUGGGGGCCAUUUCCUUUGCCCUUUUUUUUUGUUGUUAUUCUAUUUUGUACAGACAAGUUGGGAAAACAACAGCGACAAAAAAAAGUCGAGAAACUUUGUAUGGAAUUCUCGGGUGCCAA	0.537

Block 2
Target: Ras GTPase-activating protein-binding protein 1, full length (G3BP1, Homo sapiens, UniProt Q13283)
Chain of UniProt Q13283 (whole entry, looked up): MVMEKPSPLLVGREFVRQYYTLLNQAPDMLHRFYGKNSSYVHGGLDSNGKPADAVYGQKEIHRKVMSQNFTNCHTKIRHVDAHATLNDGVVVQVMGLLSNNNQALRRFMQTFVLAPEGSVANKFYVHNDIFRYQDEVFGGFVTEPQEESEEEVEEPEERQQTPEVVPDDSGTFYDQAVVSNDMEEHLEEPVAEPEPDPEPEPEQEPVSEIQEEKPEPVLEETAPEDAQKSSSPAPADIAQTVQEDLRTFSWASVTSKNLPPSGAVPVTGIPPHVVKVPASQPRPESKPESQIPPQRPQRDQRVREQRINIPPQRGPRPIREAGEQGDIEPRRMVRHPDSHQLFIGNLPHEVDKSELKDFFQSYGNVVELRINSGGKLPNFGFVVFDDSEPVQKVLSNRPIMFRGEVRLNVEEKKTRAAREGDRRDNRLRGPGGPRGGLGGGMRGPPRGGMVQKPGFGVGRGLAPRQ
Technique: RNA Bind-n-Seq
Form: RNA
Matrix: in vitro
Concentration: 200 nM
Notes: whole 134-nt RNA, ends assumed
With: 150 mM LiCl
Baseline: input library
Reading: higher = stronger binding
All molecules: 7-deaza-guanosine replaces G
Sequence	log2 enrichment
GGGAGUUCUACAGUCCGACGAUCAGUCCUGUGCUACACAUCGUAUGUACCGAAUCGGGCCCCCGGGCCCCCGGGCCCCCGGAAAGUAUUAUGUUACGCCGUUCGGAUCUGCACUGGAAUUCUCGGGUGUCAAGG	-1.55
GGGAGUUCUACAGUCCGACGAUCAGUCCUGUGCUACACAUCGUAUGUACCGAAUCGGGGAAAAAGGGGUUUGGGGAGGGGAAAGUAUUAUGUUACGCCGUUCGGAUCUGCACUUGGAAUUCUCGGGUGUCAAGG	-0.58
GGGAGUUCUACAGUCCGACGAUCUAACUUUAGAGGAGGAUCUGAUGGAUAUUGCAGUGGACGUGGAUUUGGGGAUGGCUAUAAUGGGUAUGGAGGAGGACCUGGAGGUGGCAAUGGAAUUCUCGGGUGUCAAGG	0.109
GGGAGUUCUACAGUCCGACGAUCAGUCCUGUGCUACACAUCGUAUGUACCGAAUCGGGGUUUUGGGGUUUUGGGUUUUGGAAAGUAUUAUGUUACGCCGUUCGGAUCUGCACUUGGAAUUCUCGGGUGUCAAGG	-0.292
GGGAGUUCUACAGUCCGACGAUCAAGUCCUGUGCUACACAUCGUAUGUACCGAAUCGGCCCCGGGCCCCGGGCCCCGGGGAAAGUAUUAUGUUACGCCGUUCGGAUCUGCACUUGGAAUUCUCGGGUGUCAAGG	-1.22
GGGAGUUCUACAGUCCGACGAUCACCAUGCAGGUGGGCAUCUUUGGGAAGUGGGGCAAGGGGGGGAUUGGGAGGGGGGUAACACUUUGGGAACAGGUGGUCCCAGGUCGUUUCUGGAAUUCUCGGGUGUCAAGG	0.136
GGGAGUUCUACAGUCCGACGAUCUGGGAGGUGGAUUUUGUUUAUUUUUUUAGCUCAUUUCCAGGGGUGGGAAUUAUUUUUUAAUAUGUGUCAUGAAUAAAGUUGUUUUUGAAAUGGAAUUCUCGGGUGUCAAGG	-0.375
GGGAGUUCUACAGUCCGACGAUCACCAUGCAGGUGGGCAUCUUUGGGAAGUGGGGCAAGGGGGGGAUAGGGAGGGGGGUAACACUUUGGGAACAGAUGGUCCCAGGUCGUUUCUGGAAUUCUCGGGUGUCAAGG	0.434
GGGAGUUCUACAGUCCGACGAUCCAAGUCCUGUGCUACACAUCGUAUGUACCGAAUCGGGAAAGGGAAAAAGGGUGGGAAAGUAUUAUGUUACGCCGUUCGGAUCUGCACUUCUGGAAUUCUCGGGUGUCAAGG	-0.602
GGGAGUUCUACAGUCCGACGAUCAAGUCCUGUGCUACACAUCGUAUGUACCGAAUCGGGCCCCGGCCCCGGGGCCCCGGGAAAGUAUUAUGUUACGCCGUUCGGAUCUGCACUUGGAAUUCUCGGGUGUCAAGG	-1.84

Further values, each from its own experiment
Substance	target	test	test system	setting	how to read	endpoint	result
APPRKALFTYPKG	human cyclin B2	peptide binding, yeast competitive growth sequencing	peptide, Saccharomyces cerevisiae, cyclin B2-Cln2 fusion	concentration not given	baseline: Cln2 fusion control, direction not given	binding enrichment score	0.585
PhoQ, residues 284 288 289 292 302 303 SSLVEF	PhoP, residues 12 14 15 18 19 HEGLL (Escherichia coli, UniProt P23836)	Sort-seq, measured: YFP reporter	E. coli	PhoQ-PhoP variant library, with: 10 µM Mg2+	baseline: high Mg2+ state, higher = stronger signaling	fold induction	0.726
EDLLKELQKQLEE	human cyclin B2	peptide binding, yeast competitive growth sequencing	peptide, Saccharomyces cerevisiae, cyclin B2-Cln2 fusion	concentration not given	baseline: Cln2 fusion control, direction not given	binding enrichment score	-0.697

Excerpt of the above (block 1):
Sequence	RBNS enrichment (R)
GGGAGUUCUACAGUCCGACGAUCAUCUUCCUCCCCUUUCUCCCUUUCACUCCUUCCCCUGCGGACACAUUCUAGUUCCUGCAGGGCUUAUUUAAAAAGAAGAUGGUCAAGUUUGUAAAAUAUUUGUUCGUGCUUGGAAUUCUCGGGUGCCAA	1.76
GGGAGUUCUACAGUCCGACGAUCUUGCUCCCUUGAUCCCCCCCUUUUUUUGUCCCUUCGAAGAGUAAAUGCUUUGUAUUUCUUUCUUUAAAAAAUUUACUUUAAAGAAGAAGCCACUUGAACCUUCAAUAAAGUGGAAUUCUCGGGUGCCAA	0.602
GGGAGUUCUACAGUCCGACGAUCCCUUGAUGUAGGUGUUUCAAGUGAACUUUAGACCAACAGUUGCCCAGUGACCUGCUAAAAAGUCAACUAGCUCAGAGUUUUGCUGGCCUUUAUGUGAGAAAUCCAAGAAAUGGAAUUCUCGGGUGCCAA	0.548
